# Experimental data collected from several papers.
# Numbered parts are unrelated; each lists some results of a single study.
# Sequence of UniProt O14936 (whole entry, looked up): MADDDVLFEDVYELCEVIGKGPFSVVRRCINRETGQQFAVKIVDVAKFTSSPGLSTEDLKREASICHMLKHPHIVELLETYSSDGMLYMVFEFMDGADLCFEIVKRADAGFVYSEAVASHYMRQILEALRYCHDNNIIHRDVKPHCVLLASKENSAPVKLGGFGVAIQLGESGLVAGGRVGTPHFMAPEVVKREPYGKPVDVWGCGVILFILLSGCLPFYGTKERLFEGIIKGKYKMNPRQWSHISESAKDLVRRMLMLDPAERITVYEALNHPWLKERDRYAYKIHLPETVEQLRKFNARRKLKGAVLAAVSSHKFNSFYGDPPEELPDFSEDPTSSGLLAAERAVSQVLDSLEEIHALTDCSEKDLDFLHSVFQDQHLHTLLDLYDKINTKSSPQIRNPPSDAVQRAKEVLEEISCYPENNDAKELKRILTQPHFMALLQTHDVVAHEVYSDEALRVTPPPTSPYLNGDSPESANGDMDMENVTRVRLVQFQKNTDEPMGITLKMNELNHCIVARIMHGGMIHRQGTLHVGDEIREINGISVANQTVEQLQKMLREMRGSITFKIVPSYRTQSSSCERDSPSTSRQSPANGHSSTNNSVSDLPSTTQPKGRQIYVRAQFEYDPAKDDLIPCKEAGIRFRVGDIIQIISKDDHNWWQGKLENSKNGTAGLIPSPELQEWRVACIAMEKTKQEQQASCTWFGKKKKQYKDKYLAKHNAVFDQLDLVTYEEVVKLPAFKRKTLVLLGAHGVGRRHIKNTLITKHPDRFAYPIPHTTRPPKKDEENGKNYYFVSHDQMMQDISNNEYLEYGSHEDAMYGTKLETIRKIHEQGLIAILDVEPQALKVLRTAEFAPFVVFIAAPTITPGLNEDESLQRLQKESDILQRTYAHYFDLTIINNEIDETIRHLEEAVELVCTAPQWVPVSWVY
# Sequence of UniProt P35626 (whole entry, looked up): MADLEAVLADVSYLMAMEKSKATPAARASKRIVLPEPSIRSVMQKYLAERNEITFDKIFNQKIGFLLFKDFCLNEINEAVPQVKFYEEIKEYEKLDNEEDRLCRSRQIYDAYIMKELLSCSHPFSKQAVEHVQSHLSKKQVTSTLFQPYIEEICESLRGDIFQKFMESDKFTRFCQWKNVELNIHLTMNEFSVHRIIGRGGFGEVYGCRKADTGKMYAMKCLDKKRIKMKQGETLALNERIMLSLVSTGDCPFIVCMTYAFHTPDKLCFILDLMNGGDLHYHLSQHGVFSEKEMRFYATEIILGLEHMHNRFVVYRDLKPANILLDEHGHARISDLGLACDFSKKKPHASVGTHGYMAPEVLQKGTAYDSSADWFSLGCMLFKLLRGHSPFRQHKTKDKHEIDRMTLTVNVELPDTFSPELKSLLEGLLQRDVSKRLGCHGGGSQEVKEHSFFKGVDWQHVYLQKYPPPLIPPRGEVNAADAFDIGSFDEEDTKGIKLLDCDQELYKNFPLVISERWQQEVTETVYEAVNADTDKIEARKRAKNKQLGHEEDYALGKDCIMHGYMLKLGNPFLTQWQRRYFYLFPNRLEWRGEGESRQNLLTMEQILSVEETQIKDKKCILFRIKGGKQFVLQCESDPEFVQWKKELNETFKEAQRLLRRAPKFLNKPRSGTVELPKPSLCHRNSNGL
# Sequence of UniProt Q96D53 (whole entry, looked up): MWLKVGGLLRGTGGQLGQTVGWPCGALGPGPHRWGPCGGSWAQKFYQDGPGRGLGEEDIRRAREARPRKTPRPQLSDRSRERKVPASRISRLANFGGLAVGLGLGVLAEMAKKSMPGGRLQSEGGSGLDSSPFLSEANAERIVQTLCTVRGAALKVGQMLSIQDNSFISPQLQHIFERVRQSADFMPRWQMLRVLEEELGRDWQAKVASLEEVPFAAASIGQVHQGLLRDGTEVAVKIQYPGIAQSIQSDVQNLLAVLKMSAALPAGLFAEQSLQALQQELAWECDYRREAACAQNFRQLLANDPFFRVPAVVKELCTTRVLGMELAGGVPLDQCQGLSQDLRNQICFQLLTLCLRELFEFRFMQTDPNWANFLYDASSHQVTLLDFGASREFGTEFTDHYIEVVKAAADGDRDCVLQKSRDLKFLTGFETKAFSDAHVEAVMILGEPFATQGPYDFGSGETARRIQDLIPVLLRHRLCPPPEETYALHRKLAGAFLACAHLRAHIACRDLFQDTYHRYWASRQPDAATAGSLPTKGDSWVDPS
# Sequence of UniProt O75914 (whole entry, looked up): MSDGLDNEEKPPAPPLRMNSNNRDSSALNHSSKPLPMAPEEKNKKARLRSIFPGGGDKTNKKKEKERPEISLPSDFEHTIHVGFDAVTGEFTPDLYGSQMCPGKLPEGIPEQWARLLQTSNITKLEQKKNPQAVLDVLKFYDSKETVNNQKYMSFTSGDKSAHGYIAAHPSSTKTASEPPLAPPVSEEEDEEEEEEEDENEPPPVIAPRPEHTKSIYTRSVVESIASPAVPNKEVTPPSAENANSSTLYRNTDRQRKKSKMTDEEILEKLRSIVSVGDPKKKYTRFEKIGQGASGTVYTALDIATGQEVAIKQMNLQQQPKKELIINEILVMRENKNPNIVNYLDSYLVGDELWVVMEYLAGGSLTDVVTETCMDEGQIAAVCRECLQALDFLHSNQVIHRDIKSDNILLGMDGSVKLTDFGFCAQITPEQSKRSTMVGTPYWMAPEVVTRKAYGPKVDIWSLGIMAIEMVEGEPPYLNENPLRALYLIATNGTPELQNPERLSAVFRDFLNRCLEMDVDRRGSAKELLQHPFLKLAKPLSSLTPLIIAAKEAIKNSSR
# Sequence of UniProt P32298 (whole entry, looked up): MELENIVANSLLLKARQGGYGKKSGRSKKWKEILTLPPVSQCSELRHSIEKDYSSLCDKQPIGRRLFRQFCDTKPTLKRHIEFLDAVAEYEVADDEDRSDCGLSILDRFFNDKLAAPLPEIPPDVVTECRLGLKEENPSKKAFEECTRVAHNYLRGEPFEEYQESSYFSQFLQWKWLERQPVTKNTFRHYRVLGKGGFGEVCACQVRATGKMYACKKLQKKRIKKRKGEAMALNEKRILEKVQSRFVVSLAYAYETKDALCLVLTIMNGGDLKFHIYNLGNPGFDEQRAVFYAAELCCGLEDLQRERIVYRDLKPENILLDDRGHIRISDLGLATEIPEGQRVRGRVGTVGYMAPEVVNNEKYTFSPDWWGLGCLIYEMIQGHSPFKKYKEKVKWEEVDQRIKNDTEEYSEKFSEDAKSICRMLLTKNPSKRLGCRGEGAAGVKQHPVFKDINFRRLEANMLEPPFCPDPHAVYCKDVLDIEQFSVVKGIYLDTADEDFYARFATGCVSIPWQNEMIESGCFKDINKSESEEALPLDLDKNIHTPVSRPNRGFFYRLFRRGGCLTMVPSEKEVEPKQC
# Sequence of UniProt P23458 (whole entry, looked up): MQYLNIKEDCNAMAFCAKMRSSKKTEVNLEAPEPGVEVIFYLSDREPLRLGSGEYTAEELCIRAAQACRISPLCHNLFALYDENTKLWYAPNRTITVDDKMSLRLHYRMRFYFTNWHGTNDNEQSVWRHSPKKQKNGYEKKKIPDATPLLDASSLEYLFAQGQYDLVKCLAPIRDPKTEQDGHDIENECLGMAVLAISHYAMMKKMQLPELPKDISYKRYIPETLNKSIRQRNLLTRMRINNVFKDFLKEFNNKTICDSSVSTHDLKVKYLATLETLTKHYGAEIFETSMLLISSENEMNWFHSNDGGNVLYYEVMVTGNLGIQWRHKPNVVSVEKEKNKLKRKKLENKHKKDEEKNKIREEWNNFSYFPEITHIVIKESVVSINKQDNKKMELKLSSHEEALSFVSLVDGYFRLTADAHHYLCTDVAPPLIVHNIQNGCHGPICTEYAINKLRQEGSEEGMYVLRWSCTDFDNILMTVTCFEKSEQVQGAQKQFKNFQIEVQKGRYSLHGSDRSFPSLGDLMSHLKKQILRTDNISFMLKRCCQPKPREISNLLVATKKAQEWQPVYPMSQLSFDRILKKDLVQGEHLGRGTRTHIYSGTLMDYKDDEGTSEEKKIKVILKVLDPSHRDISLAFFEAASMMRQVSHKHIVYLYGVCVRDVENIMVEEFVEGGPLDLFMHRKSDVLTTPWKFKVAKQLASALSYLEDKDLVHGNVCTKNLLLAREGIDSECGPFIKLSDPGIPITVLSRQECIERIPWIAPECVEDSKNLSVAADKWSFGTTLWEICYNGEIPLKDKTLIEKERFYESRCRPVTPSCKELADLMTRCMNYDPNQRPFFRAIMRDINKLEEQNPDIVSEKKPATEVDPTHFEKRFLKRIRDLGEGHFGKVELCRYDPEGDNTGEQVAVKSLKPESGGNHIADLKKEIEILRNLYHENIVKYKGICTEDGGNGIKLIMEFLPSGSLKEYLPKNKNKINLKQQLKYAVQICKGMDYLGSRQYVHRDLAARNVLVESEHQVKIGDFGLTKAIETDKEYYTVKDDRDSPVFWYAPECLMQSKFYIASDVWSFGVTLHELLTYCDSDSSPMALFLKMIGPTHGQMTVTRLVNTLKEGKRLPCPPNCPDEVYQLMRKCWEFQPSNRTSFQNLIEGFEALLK

# Sample 1
# SMILES: CN(C)c1ncnc(-c2ccc3nc(Nc4cc(CN5CCN(C(=O)CC(F)(F)F)CC5)ccn4)[nH]c3c2)c1Cl
# Read-out: cell-free assay
# Method: competition with immobilised ligand
# Tested at: 1 µM
target,remaining binding
"NEK9 (Homo sapiens, UniProt Q8TD19)",100%
"COQ8B (Homo sapiens, UniProt Q96D53)",90%
"MAP2K5 (Homo sapiens, UniProt Q13163)",1.8%
"AXL (Homo sapiens, UniProt P30530)",57%
"EPHB4 (Homo sapiens, UniProt P54760)",100%
"RET (Homo sapiens, UniProt P07949, V804L)",100%
"Tyrosine-protein kinase JAK1, JH1 (JAK1, Homo sapiens, UniProt P23458)",93%
"MAP3K10 (Homo sapiens, UniProt Q02779)",100%
"GRK7 (Homo sapiens, UniProt Q8WTQ7)",90%
"CAMKK1 (Homo sapiens, UniProt Q8N5S9)",100%
"STK25 (Homo sapiens, UniProt O00506)",100%
"GRK3 (Homo sapiens, UniProt P35626)",78%
"MAPK10 (Homo sapiens, UniProt P53779)",51%
"CASK (Homo sapiens, UniProt O14936)",89%
"PAK3 (Homo sapiens, UniProt O75914)",81%
"GRK4 (Homo sapiens, UniProt P32298)",100%

# Sample 2
# Target: Serine/threonine-protein kinase Sgk3 (SGK3, Homo sapiens, UniProt Q96BR1)
# Read-out: enzyme activity
# Action: inhibitor
# Tested at: 0.5 µM
# Relative to: control
# Target sequence (Q96BR1 1-496): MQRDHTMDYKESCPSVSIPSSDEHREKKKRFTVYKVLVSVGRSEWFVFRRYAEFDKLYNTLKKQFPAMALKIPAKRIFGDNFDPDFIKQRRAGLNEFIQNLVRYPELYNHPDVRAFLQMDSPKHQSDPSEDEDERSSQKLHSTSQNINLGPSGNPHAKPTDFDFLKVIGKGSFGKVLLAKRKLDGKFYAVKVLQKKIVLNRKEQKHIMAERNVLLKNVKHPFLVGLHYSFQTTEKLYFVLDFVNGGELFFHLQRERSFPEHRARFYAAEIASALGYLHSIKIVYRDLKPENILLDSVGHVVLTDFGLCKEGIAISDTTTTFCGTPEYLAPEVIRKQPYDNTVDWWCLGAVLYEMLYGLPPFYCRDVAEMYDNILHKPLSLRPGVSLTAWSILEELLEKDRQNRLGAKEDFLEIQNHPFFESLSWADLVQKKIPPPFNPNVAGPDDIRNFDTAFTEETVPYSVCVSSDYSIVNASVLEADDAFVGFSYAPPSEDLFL
SMILES,remaining activity
CNC(=O)c1cc(Oc2ccc(NC(=O)Nc3ccc(Cl)c(C(F)(F)F)c3)cc2)ccn1,101%
O=C1NC(=O)C(c2cn(CCCO)c3ncccc23)=C1c1cnccn1,124%
O=c1c2ccccc2[nH]c(=S)n1CCN1CCC(=C(c2ccc(F)cc2)c2ccc(F)cc2)CC1,114%
Cc1ccc(NC(=O)c2ccc(CN3CCN(C)CC3)cc2)cc1Nc1nc(-c2cccnc2)cs1,95.6%

# Sample 3
# Target: Interferon regulatory factor 7, full length, phosphomimetic (IRF7, Homo sapiens, UniProt Q92985, residues 1-503, S471D/S472D/S475D/S476D/S477D/S483D/S484D/S487D)
# Sequence of UniProt Q92985 (whole entry, unmodified, looked up): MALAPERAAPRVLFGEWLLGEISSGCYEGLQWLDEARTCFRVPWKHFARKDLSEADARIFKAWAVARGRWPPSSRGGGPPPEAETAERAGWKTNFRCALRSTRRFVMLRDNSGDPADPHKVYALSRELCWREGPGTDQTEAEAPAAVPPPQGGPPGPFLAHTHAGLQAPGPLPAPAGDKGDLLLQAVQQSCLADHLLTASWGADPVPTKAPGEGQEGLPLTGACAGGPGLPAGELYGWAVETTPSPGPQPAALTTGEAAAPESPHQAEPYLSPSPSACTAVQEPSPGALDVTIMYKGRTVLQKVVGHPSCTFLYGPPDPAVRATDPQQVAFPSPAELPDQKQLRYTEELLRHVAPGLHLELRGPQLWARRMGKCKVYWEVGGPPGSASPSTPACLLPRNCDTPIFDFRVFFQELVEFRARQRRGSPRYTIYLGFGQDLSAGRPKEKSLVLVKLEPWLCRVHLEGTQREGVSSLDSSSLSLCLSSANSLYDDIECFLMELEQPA
# Method: protein-binding microarray
# Molecule type: double-stranded DNA, one strand shown
# Sample: in vitro
# Tested at: 2200 nM top
# Notes: 60-bp whole probe
# Added: salmon DNA 0.4 mg/ml
# Relative to: random background probes
# Direction: higher = stronger binding
# All sequences stand within: GCCTAGCAC … GTCTTGATTCGCTTGACGCTGCTG
Oligonucleotide,fitted relative affinity [z-score]
TTAGGTTTCGACCCTGGGTTAGTGCTA,2.68
GACGATCTCAGACTGGGGACGTGCTAG,-0.0609
CTCTGCTTGTGTCTGGGCTTGTGCTAG,0.71
CTGCCTCACATTGCTAAGACGTGCTAG,0.683
GACGGTATCCTTTTACTGACGTGCTAG,1.16
TCCTCTTTCTCTGCTACCCTCGTGCTA,2.67
GACGGAATCCTTATCCTGACGTGCTAG,0.695
GACTGTATCGGGTTTCGGGACGTGCTA,1.75

# Further values, each from its own experiment
# Method: cross-linking MS
Substance,partner,sample,notes,added,measurement,value
"ERLIN1 (Homo sapiens, UniProt O75477)","ERLIN2 (Homo sapiens, UniProt O94905)",cell fractions,,DSSO,cross-linked residues,K286 to K275
"ZC3H13 (Homo sapiens, UniProt Q5T200)","ABHD10 (Homo sapiens, UniProt Q9NUJ1)",cell fractions,,DMTMM,cross-linked residues,K285 to D62
"NOL6 (Homo sapiens, UniProt Q9H6R4)","RRP7A (Homo sapiens, UniProt Q9Y3A4)",,hits only,,interaction screen,cross-linked
"TM7SF2 (Homo sapiens, UniProt O76062)","SWAP70 (Homo sapiens, UniProt Q9UH65)",cell fractions,,DMTMM,cross-linked residues,K316 to D86

# Repeated from above (sample 1):
target,remaining binding
"CAMKK1 (Homo sapiens, UniProt Q8N5S9)",100%
"RET (Homo sapiens, UniProt P07949, V804L)",100%
